Measurements pooled from the literature.
Lines come from different studies, so protocols differ.
Organism: Staphylococcus aureus

SMILES = COc1cc(C(=O)Nc2ccc(C(=O)O)c(O)c2OC)ccc1NC(=O)c1ccc(NC(=O)[C@H](Cc2c[nH]nn2)NC(=O)c2ccc(NC(=O)/C(C)=C/c3ccc(O)cc3)cc2)cc1; test = broth microdilution; test system = ciprofloxacin-sensitive; MIC = 4 µg/mL
SMILES = CN[C@H](CC(C)C)C(=O)N[C@H]1C(=O)N[C@@H](CC(N)=O)C(=O)N[C@H]2C(=O)N[C@H]3C(=O)N[C@H](C(=O)N[C@H](C(=O)O)c4cc(O)cc(O)c4-c4cc3ccc4O)[C@H](O)c3ccc(c(Cl)c3)Oc3cc2cc(c3O[C@@H]2O[C@H](CO)[C@@H](O)[C@H](O)[C@H]2O[C@H]2C[C@](C)(N)[C@H](O)[C@H](C)O2)Oc2ccc(cc2Cl)[C@H]1O; test = microbial growth, broth dilution; test system = 43300; MIC = < 1 µM
SMILES = COC(=O)CNC(=O)c1ccc(NC(=O)c2[nH]c(C)c(Cl)c2Cl)c(N2CCN(C(=O)OC(C)(C)C)CC2)c1; test = microbial growth, broth dilution; test system = ATCC29213; MIC = > 32 µg/mL
SMILES = CCCCCCCCCC[N+](C)(C)CCCCCCCCCCOc1cc(OCCCCCCCCCC[N+](C)(C)CCCCCCCCCC)cc(OCCCCCCCCCC[N+](C)(C)CCCCCCCCCC)c1.[Br-].[Br-].[Br-]; test system = SH1000 MSSA; MIC = 8 µM
SMILES = COc1c(C)c(OC(=O)c2ccc3ccccc3c2)c(C)c(O)c1C(=O)/C=C/c1ccccc1; test = microbial growth, broth dilution; test system = ATCC25923; MIC = 5000 µg/mL
SMILES = C#CCOc1ccc(CN[C@@]2(C)C[C@H](O[C@H]3[C@H](Oc4c5cc6cc4Oc4ccc(cc4Cl)[C@@H](O)[C@@H](NC(=O)[C@@H](CC(C)C)NC)C(=O)N[C@@H](CC(N)=O)C(=O)N[C@H]6C(=O)N[C@H]4C(=O)N[C@H](C(=O)N[C@H](C(=O)O)c6cc(O)cc(O)c6-c6cc4ccc6O)[C@H](O)c4ccc(c(Cl)c4)O5)O[C@H](CO)[C@@H](O)[C@@H]3O)O[C@@H](C)[C@H]2O)cc1OC; test = broth microdilution; test system = MRSA USA300, cation-adjusted Mueller-Hinton broth; conditions = 20 to 24 h, 37 °C, 0.002% polysorbate 80; MIC = 2 µg/mL
SMILES = CC[C@H]1OC(=O)[C@H](C)C(=O)[C@H](C)[C@@H](O[C@@H]2O[C@H](C)C[C@H](N(C)C)[C@H]2O)[C@](C)(OC)C[C@@H](C)C(=O)[C@H](C)[C@H]2N(CCCCn3cnc(-c4cccnc4)c3)C(=O)O[C@]12C; test = microbial growth; test system = BAA976; MIC = 32 µg/mL
SMILES = CCCCCCCCCC[N+](C)(C)CCCCOc1cc(OCCCC[N+](C)(C)CCCCCCCCCC)cc(OCCCC[N+](C)(C)CCCCCCCCCC)c1.[Br-].[Br-].[Br-]; test system = SH1000 MSSA; MIC = 0.5 µM
SMILES = C/C(=C\c1ccc(O)cc1)C(=O)Nc1ccc(C(=O)N[C@@H](Cc2c[nH]nn2)C(=O)Nc2ccc(C(=O)Nc3ccc(C(=O)Nc4ccc(C(=O)O)cc4)c(O)c3)cc2)cc1; test = broth microdilution; test system = ciprofloxacin-resistant; MIC = 32 µg/mL
SMILES = COc1c(C)c(O)c(C(=O)C=Cc2ccccc2)c(OC)c1C; test = microbial growth, broth dilution; test system = ATCC25923; MIC = 5000 µg/mL
SMILES = CCOc1c(NC(=O)c2ccc(NC(=O)c3ccc(NC(=O)[C@H](Cc4c[nH]nn4)NC(=O)c4ccc(NC(=O)/C(C)=C/c5ccc(O)cc5)cc4)cc3)c(OCC)c2O)ccc(C(=O)O)c1O; test = broth microdilution; test system = ciprofloxacin-resistant; MIC = 0.063 µg/mL
SMILES = c1ccc(CSc2nc3ccccc3cc2CNCCC2CCN(C3CCCC3)CC2)cc1; test = microbial growth, broth dilution; MIC = 32 µg/mL
SMILES = CCC(CC)c1cc(CCN2CCCN(S(=O)(=O)c3ccc4ccccc4c3)CC2)nc(-c2ccccn2)n1; test = microbial growth, broth dilution; test system = ATCC29213; MIC = > 16 µg/mL
SMILES = CC[C@H]1OC(=O)[C@H](C)[C@@H](OC(=O)Cc2ccc3c(c2)OCO3)[C@H](C)[C@@H](O[C@@H]2O[C@H](C)C[C@H](N(C)C)[C@H]2O)[C@](C)(OC)C[C@@H](C)C(=O)[C@H](C)[C@@H](O)[C@]1(C)O; test system = BAA-977; MIC = 0.5 µg/mL
SMILES = CCCCCCn1cc[n+](CCCCCCOc2cc(OCCCCCC[n+]3ccn(CCCCCC)c3)cc(OCCCCCC[n+]3ccn(CCCCCC)c3)c2)c1.[Br-].[Br-].[Br-]; test system = SH1000 MSSA; MIC = 0.5 µM
SMILES = COc1cc2c(cc1OC)-c1cc3ccc(OC)c(OC)c3c[n+]1CC2.[Cl][Fe-]([Cl])([Cl])[Cl]; conditions = 24 h, 37 °C; MIC = 800 µM
SMILES = CC[C@H]1OC(=O)[C@H](C)[C@@H](OC(=O)Cc2ccccc2Cl)[C@H](C)[C@@H](O[C@@H]2O[C@H](C)C[C@H](N(C)C)[C@H]2O)[C@](C)(OC)C[C@@H](C)C(=O)[C@H](C)[C@@H](O)[C@]1(C)O; test = microbial growth; test system = BAA976; MIC = 2 µg/mL
SMILES = Oc1c(Br)cc(Br)c2nc3cc(Cl)ccc3nc12; test system = 129 MRSA clinical isolate; MIC = 0.15 µM
SMILES = CC(C)C/C=C/C=C\C(=O)N[C@@H](CC(N)=O)C(=O)N[C@@H]1C(=O)N[C@H](c2ccc(O)cc2)C(=O)N[C@H](CCCN)C(=O)N[C@H]([C@@H](C)O)C(=O)N[C@@H](c2ccc(O)cc2)C(=O)N[C@H](c2ccc(O)cc2)C(=O)N[C@@H]([C@H](C)O)C(=O)N[C@@H](Cc2ccccc2)C(=O)N[C@H](CCCN)C(=O)N[C@@H](c2ccc(O[C@H]3O[C@H](CO)[C@@H](O)[C@H](O)[C@@H]3O[C@H]3O[C@H](CO)[C@@H](O)[C@H](O)[C@@H]3O)cc2)C(=O)N[C@H]([C@@H](C)O)C(=O)N[C@@H](c2ccc(O)cc2)C(=O)NCC(=O)N[C@@H](CC(C)C)C(=O)N[C@H](C)C(=O)N[C@@H](c2ccc(O)c(Cl)c2)C(=O)O[C@@H]1C(N)=O; test = broth microdilution; test system = MSSA ATCC 29213; MIC = 2.6 µg/mL
SMILES = CC[C@H]1OC(=O)[C@H](C)[C@@H](OC(=O)Cc2ccc(C(F)(F)F)cc2)[C@H](C)[C@@H](O[C@@H]2O[C@H](C)C[C@H](N(C)C)[C@H]2O)[C@](C)(OC)C[C@@H](C)C(=O)[C@H](C)[C@@H](O)[C@]1(C)O; test system = ATCC 43300 MRSA; MIC = 64 µg/mL
SMILES = CCCCCCCCCCn1cc[n+](CCCCCCCCOc2cc(OCCCCCCCC[n+]3ccn(CCCCCCCCCC)c3)cc(OCCCCCCCC[n+]3ccn(CCCCCCCCCC)c3)c2)c1.[Br-].[Br-].[Br-]; test system = CA-MRSA USA300-0114; MIC = 2 µM
SMILES = CCCC/C=C/C(=O)N[C@@H](Cc1cc(F)cc(F)c1)C(=O)N[C@@H]1C(=O)N2CCC[C@H]2C(=O)N(C)[C@@H](C)C(=O)N[C@@H](C)C(=O)N2CCC[C@H]2C(=O)O[C@H]1C; test = microbial growth, broth dilution; MIC = 0.098 µg/mL
SMILES = CCCCCC[N+](C)(C)CCCCOc1cc(OCCCC[N+](C)(C)CCCCCC)cc(OCCCC[N+](C)(C)CCCCCC)c1.[Br-].[Br-].[Br-]; test system = HA-MRSA ATCC 33591; MIC = 125 µM
SMILES = C#CCNC(=O)[C@H]1NC(=O)[C@H]2NC(=O)[C@H](NC(=O)[C@@H]3NC(=O)[C@H](CC(N)=O)NC(=O)[C@H](NC(=O)[C@@H](CC(C)C)NC)[C@H](O)c4ccc(c(Cl)c4)Oc4cc3cc(c4O[C@@H]3O[C@H](CO)[C@@H](O)[C@H](O)[C@H]3O[C@H]3C[C@](C)(N)[C@H](O)[C@H](C)O3)Oc3ccc(cc3Cl)[C@H]2O)c2ccc(O)c(c2)-c2c(O)cc(O)cc21; test = broth microdilution; test system = MSSA ATCC 29213, cation-adjusted Mueller-Hinton broth; conditions = 20 to 24 h, 37 °C, 0.002% polysorbate 80; MIC = 0.5 µg/mL
SMILES = CC[C@@H](C)[C@@H](NC(=O)[C@H](CCCNC(=N)N)NC(=O)[C@H](CCC(N)=O)NC(=O)[C@@H](NC(=O)[C@H](NC(=O)[C@H](CCCNC(=N)N)NC(=O)[C@H](CCCCN)NC(=O)[C@H](Cc1ccccc1)NC(=O)CN)[C@H](C)CC)C(C)C)C(=O)N[C@@H](CCCCN)C(=O)N[C@@H](CC(=O)O)C(=O)N[C@@H](Cc1ccccc1)C(=O)N[C@H](CC(C)C)C(=O)N[C@@H](CCCNC(=N)N)C(=O)N[C@@H](CC(N)=O)C(=O)N[C@@H](CC(C)C)C(=O)N[C@H](C(N)=O)C(C)C; test system = USA300 LAC; MIC = > 160 µM
SMILES = CCCCCC[N+](C)(C)CCCCCCCCOc1cc(OCCCCCCCC[N+](C)(C)CCCCCC)cc(OCCCCCCCC[N+](C)(C)CCCCCC)c1.[Br-].[Br-].[Br-]; test system = SH1000 MSSA; MIC = 1 µM
SMILES = C[C@@H]1C(=O)O[C@@H](C)/C=C/C=C\[C@@H](C)[C@@H]2C=C[C@@H]3C[C@@]4(C)O[C@H]4[C@@H](C)[C@H]3[C@@H]2C(=O)C(Cl)(Cl)C1=O; test system = MSSA clinical isolate; conditions = PEN ERY TET resistant; MIC = 0.05 µg/mL
SMILES = CC[C@H]1OC(=O)[C@H](C)[C@@H](OC(=O)Cc2ccc(N(C)C)cc2)[C@H](C)[C@@H](O[C@@H]2O[C@H](C)C[C@H](N(C)C)[C@H]2O)[C@](C)(OC)C[C@@H](C)C(=O)[C@H](C)[C@@H](O)[C@]1(C)O; test system = ATCC 43300 MRSA; MIC = > 256 µg/mL
SMILES = CCCCCCCCn1cc[n+](CCCCCCCCOc2cc(OCCCCCCCC[n+]3ccn(CCCCCCCC)c3)cc(OCCCCCCCC[n+]3ccn(CCCCCCCC)c3)c2)c1.[Br-].[Br-].[Br-]; test system = SH1000 MSSA; MIC = 1 µM
SMILES = CC[C@H]1OC(=O)[C@H](C)[C@@H](OC(=O)Cc2ccc(OC)cc2)[C@H](C)[C@@H](O[C@@H]2O[C@H](C)C[C@H](N(C)C)[C@H]2O)[C@](C)(OC)C[C@@H](C)C(=O)[C@H](C)[C@@H](O)[C@]1(C)O; test system = DSM 20231 MSSA; MIC = 8 µg/mL
SMILES = COc1c(NC(=O)c2ccc(NC(=O)c3ccc(NC(=O)[C@H](Cc4c[nH]nn4)NC(=O)c4ccc(NC(=O)/C(C)=C/c5ccc(O)cc5)cc4)cc3)c(OC)c2O)ccc(C(=O)O)c1O; test = broth microdilution; test system = ciprofloxacin-sensitive; MIC = 2 µg/mL
SMILES = CC[C@H]1OC(=O)[C@H](C)[C@@H](OC(=O)Cc2c(F)cc([N+](=O)[O-])cc2F)[C@H](C)[C@@H](O[C@@H]2O[C@H](C)C[C@H](N(C)C)[C@H]2O)[C@](C)(OC)C[C@@H](C)C(=O)[C@H](C)[C@@H](O)[C@]1(C)O; test system = DSM 20231 MSSA; MIC = 0.1 µg/mL
SMILES = C#CCOc1ccc(CN[C@@]2(C)C[C@H](O[C@H]3[C@H](Oc4c5cc6cc4Oc4ccc(cc4Cl)[C@@H](O)[C@@H](NC(=O)[C@@H](CC(C)C)NC)C(=O)N[C@@H](CC(N)=O)C(=O)N[C@H]6C(=O)N[C@H]4C(=O)N[C@H](C(=O)N[C@H](C(=O)NCC(N)=O)c6cc(O)cc(O)c6-c6cc4ccc6O)[C@H](O)c4ccc(c(Cl)c4)O5)O[C@H](CO)[C@@H](O)[C@@H]3O)O[C@@H](C)[C@H]2O)cc1OC; test = broth microdilution; test system = MSSA ATCC 29213, cation-adjusted Mueller-Hinton broth; conditions = 20 to 24 h, 37 °C, 0.002% polysorbate 80; MIC = 0.5 µg/mL
